Earlier results as cited in several papers.
“And” joins repeats or separate records; there may be more than shown. Numbers after ± are the reported error.

SMILES	tested on	test	system	setting	scale	quantity	value
CN1CCN(c2ccc3[nH]c(-c4ccc5[nH]c(-c6ccc(OCCCCNC(=O)c7ccc8c(c7)C(=O)OC87c8ccc(N(C)C)cc8[Si](C)(C)c8cc(N(C)C)ccc87)cc6)nc5c4)nc3c2)CC1	–	–	PBS	2 µM, added: 30 µM hairpin DNA	–	fluorescence quantum yield	0.374 ± 0.006
CC(C)OC(=O)c1ccc(O)cc1	–	octanol-water	–	–	–	logP	2.81
O=C(OC(C(F)(F)F)C(F)(F)F)N1CCC(C(O)(c2ccc3c(c2)OCO3)c2ccc3c(c2)OCO3)CC1	–	–	–	–	–	logD	4.6
CN1CCN(c2ccc3[nH]c(-c4ccc5[nH]c(-c6ccc(OCCCCNC(=O)c7ccc8c(c7)C7(OC8=O)c8ccc(N(C)C)cc8[Si](C)(C)c8cc(N(C)C)ccc87)cc6)nc5c4)nc3c2)CC1	–	–	PBS	–	–	fluorescence quantum yield	0.003 ± 0.002
O=C(C=C(O)C(F)(F)C(F)(F)F)c1ccsc1	Plasmodium falciparum formate-nitrite transporter	binding, FCCS	isolated protein	–	–	Ki	0.085 ± 0.004 µM
CNc1nc(N)nc2c1ncn2[C@@H]1O[C@H](CO[P@](=O)(O)N[C@@H](C)C(=O)O)[C@@H](O)[C@@]1(C)F	–	–	plasma	–	–	plasma half-life	~3 h
COc1ccc2c(c1)CN(C(=O)CCN1CCC(Cc3ccccc3)CC1)CCS2	–	–	dog sterile pericarditis AF model	dose not given	–	unbound plasma concentration	130 nM
CCC(=[NH+][Pt-2]1([Cl])[NH2+]CCC[NH2+]1)N(C)CCNc1c2ccccc2[nH+]c2ccccc12.O=[N+]([O-])[O-].O=[N+]([O-])[O-] (stereo not shown)	–	–	–	9-aminoacridine chromophore	–	pKa	9.5 to 10
CCn1c(=O)c(-c2cc(NC(=O)Nc3ccccc3)c(F)cc2Br)cc2cnc(N)cc21	–	–	human patients	150 mg once daily, geometric mean	–	Cmax	804 ± 45.5 ng/mL
COc1ccc(Nc2nc(Nc3ccc(OCC[18F])cc3)ncc2Br)cc1	–	–	S180 tumour-bearing mice, lung	intravenous, 60 min	–	tissue uptake	4.23 ± 0.57 %ID/g
Oc1c(Cc2c[nH]c3ccccc23)cc(Cl)c2cccnc12	COLO 205	cytotoxicity	–	–	–	IC50	12.3 µM and 13.6 µM and 13.4 µM
CC1(N(CC(=O)O)CC(=O)O)CN(CC(=O)O)CCN(CC(=O)O)C1	–	pH-potentiometry, measured: logK2H	0.1 M KCl	25 °C	–	protonation constant (log)	6.52
CC(O)CN1CCN(CC(=O)O)CCN(CC(=O)O)CCN(CC(=O)O)CC1 (stereo not shown)	–	–	0.1 M Me4NCl	25 °C	–	log K GdL	23.8
CCCCCC(=O)NC(CC(=O)N(CC)CC)C(=O)NC(Cc1ccc(F)cc1)C(=O)NC(Cc1ccc(F)cc1F)C(=O)C1(C)CO1 (stereo not shown)	–	–	–	–	–	plasma half-life	2.4 h
COc1cc2nc(c1)CNCCNCCNC2.[Cu+2]	–	cyclic voltammetry	DMF	scan rate 100 mV/s	–	peak separation ΔE	165 mV
O=C(O)CCCCC1(N(CC(=O)O)CC(=O)O)CN(CC(=O)O)CCN(CC(=O)O)C1	–	pH-potentiometry, measured: logK4H	0.15 M NaCl	25 °C	–	protonation constant (log)	3.73
O=C1NC(=O)/C(=C/c2ccc3ncnc(N4CCC(F)CC4)c3n2)S1	–	–	mouse	–	–	oral bioavailability	100%
CN1CCN(c2ccc3[nH]c(-c4ccc5[nH]c(-c6ccc(OCCCCNC(=O)c7ccc8c(c7)C7(OC8=O)c8ccc(N(C)C)cc8C(C)(C)c8cc(N(C)C)ccc87)cc6)nc5c4)nc3c2)CC1	–	–	PBS	2 µM, added: 30 µM hairpin DNA	–	fluorescence quantum yield	0.282 ± 0.005
Ic1cc2nc(c1)CNCCNCCNC2.[Cu+2]	–	cyclic voltammetry	DMF	scan rate 100 mV/s	baseline: Fc/Fc+	anodic peak potential	-811 mV

SMILES	tested on	test	system	setting	scale	quantity	value
Cc1ccc2c(c1)nc(CCN1C(=O)c3cccc4cccc(c34)C1=O)n2-c1ccncc1	–	–	Sprague-Dawley rat	oral, 10 mg/kg	–	AUC(0-t)	55 ng·h/mL
c1ccc2cc3c(ccc4ccccc43)cc2c1	–	–	–	experimental mean	–	log Kow	5.6
O=C(O)c1cccc(CN2Cc3cccc(n3)CN(Cc3cccc(C(=O)O)n3)Cc3cccc(n3)C2)n1	–	protonation constant	0.1 M KCl	–	–	log KHL	8.41
[Cu+2].c1cc2nc(c1)CNCCNCCNC2	–	cyclic voltammetry	DMF	scan rate 100 mV/s	–	peak separation ΔE	93 mV
Oc1cccc(-c2cccc(O)n2)n1.[Cl-].[Cl-].[Ru+2].c1cnc2c(c1)ccc1cccnc12.c1cnc2c(c1)ccc1cccnc12	–	–	–	pH 7.4	–	log D octanol/water	1.6
CCCCCCCCCOC(=O)c1ccc(O)cc1	–	–	–	pH 7.4	–	logD	4.45
O=C(Nc1ccc(OC(F)(F)F)cc1)NC1CCN(C(=O)C2CC2)CC1	–	experimental	–	–	–	logP	3.28
CCC(C)OC(=O)c1ccc(O)cc1 (stereo not shown)	–	octanol-water	–	–	–	logP	3.2
COC1=CC(c2ccc[nH]2)=NC1=CNC12CC3CC(CC(C3)C1)C2.Cl	–	metabolic stability	mouse liver microsomes	–	–	half-life	0.192 h
FC(F)(F)c1cc2nc(c1)CNCCNCCNC2.[Cu+2]	–	cyclic voltammetry	DMF	scan rate 100 mV/s	baseline: Fc/Fc+	cathodic peak potential	-1000 mV
NCCN1CCN(CC(=O)O)Cc2cccc(n2)CN(CC(=O)O)CC1	–	–	–	0.15 M NaCl	–	sum of log KiH	29.1
C/C(N)=N/C(=N\S(=O)(=O)c1ccc(C(F)(F)F)cc1)N1C[C@H](c2ccccc2)C(c2ccc(Cl)cc2)=N1	–	–	Sprague-Dawley rat	–	–	t1/2	4 h
CC(=O)N1CCN(C(=O)c2ccc(Nc3nccc(-c4ccc(Cl)cc4)n3)cc2)CC1	–	–	mouse	–	–	half-life	2 to 3 h
O=C(O)CN1CCN(CC(=O)O)CCN(CC(=O)O)CC1	–	–	0.1 M Me4NCl	–	–	log KH2	5.74
Clc1cc2nc(c1)CNCCNCCNC2.[Cu+2]	–	cyclic voltammetry	DMF	scan rate 100 mV/s	baseline: Fc/Fc+	anodic peak potential	-878 mV
O=C([O-])CN(CC(=O)[O-])C1CCCCC1N(CC(=O)[O-])CC(=O)[O-].[Mn+2] (stereo not shown)	–	–	–	transmetallation, added: Zn(II) 25 mM	–	half-life	0.183 h
CCOC(=O)C(c1cc(Cl)c2cccnc2c1O)c1c[nH]c2ncccc12 (stereo not shown)	COLO 320 ABCB1-overexpressing	cell viability	–	–	–	IC50	5.06 µM
COc1ccc2ncc(F)c(C[C@H](O)[C@H]3OC[C@H](NCc4ccc5c(n4)NC(=O)CO5)CO3)c2c1	–	–	mouse liver microsomes	–	–	metabolic half-life	0.755 h

For quick reference, copied from above:
SMILES	tested on	test	system	setting	scale	quantity	value
Oc1c(Cc2c[nH]c3ccccc23)cc(Cl)c2cccnc12	COLO 205	cytotoxicity	–	–	–	IC50	12.3 µM and 13.6 µM and 13.4 µM
Clc1cc2nc(c1)CNCCNCCNC2.[Cu+2]	–	cyclic voltammetry	DMF	scan rate 100 mV/s	baseline: Fc/Fc+	anodic peak potential	-878 mV
CCC(C)OC(=O)c1ccc(O)cc1 (stereo not shown)	–	octanol-water	–	–	–	logP	3.2
[Cu+2].c1cc2nc(c1)CNCCNCCNC2	–	cyclic voltammetry	DMF	scan rate 100 mV/s	–	peak separation ΔE	93 mV
